Measured values of several laboratories.
Each line is one published result; not all experiments were run side by side. Several values in a cell are separate wells, animals, samples, runs or records. ± marks the error that the study gave.
STING1 H232R: Stimulator of interferon genes protein (STING1, Homo sapiens, UniProt Q86WV6, H232R)
UniProt Q86WV6, sequence (whole entry, unmodified, looked up): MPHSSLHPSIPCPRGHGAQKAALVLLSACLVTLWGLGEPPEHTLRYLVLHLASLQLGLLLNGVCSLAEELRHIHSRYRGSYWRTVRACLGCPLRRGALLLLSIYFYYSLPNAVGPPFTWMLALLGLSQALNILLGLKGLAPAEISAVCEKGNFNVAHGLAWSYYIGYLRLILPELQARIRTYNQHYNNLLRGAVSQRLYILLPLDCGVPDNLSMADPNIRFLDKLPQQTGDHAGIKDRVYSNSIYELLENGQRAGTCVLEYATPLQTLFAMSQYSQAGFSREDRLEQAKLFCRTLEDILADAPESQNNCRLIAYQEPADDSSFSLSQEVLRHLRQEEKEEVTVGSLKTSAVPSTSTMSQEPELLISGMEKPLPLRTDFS
MAPK8: Mitogen-activated protein kinase 8 (MAPK8, Homo sapiens, UniProt P45983)
UniProt Q92633, sequence (whole entry, looked up): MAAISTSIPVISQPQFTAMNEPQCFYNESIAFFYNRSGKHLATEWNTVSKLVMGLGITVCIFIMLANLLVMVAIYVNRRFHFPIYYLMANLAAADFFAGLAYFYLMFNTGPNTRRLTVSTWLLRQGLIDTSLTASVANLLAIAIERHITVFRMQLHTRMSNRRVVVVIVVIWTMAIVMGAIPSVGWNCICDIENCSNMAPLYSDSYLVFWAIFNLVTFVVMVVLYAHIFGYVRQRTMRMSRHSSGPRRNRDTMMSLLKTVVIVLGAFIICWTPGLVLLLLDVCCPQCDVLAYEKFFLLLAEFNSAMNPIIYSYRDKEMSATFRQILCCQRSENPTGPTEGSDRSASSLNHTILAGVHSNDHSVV
UniProt P46089, sequence (whole entry, looked up): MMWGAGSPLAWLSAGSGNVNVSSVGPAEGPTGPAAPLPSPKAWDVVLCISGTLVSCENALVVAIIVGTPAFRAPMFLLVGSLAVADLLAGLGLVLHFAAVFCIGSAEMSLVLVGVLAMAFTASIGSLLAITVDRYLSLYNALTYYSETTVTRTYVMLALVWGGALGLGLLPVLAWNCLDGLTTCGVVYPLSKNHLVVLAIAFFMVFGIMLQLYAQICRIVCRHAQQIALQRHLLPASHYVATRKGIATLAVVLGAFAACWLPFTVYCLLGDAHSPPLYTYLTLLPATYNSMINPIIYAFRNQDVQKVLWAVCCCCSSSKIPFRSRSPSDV
UniProt P45983, sequence (whole entry, looked up): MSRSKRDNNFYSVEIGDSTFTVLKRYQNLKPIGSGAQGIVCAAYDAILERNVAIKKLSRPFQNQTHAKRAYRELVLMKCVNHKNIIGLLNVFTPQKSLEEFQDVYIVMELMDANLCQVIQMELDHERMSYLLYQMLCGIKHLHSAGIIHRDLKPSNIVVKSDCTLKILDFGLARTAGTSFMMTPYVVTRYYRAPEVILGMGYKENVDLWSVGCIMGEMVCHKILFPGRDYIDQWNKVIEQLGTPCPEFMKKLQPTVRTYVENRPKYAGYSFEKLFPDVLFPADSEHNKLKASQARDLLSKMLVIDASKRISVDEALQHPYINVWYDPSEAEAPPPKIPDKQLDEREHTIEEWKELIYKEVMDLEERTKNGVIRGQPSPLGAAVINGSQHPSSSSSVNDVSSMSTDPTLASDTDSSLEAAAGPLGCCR
UniProt O95551, sequence (whole entry, looked up): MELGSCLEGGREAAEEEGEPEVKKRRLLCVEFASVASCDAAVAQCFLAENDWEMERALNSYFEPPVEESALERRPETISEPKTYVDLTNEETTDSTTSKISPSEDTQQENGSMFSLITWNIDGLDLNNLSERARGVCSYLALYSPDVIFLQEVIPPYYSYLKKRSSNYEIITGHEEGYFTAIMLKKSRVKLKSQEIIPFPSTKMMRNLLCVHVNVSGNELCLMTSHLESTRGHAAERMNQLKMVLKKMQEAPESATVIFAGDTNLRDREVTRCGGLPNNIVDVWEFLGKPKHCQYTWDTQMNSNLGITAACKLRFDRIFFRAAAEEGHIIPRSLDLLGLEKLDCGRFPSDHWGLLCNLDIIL
UniProt O75385, sequence (whole entry, looked up): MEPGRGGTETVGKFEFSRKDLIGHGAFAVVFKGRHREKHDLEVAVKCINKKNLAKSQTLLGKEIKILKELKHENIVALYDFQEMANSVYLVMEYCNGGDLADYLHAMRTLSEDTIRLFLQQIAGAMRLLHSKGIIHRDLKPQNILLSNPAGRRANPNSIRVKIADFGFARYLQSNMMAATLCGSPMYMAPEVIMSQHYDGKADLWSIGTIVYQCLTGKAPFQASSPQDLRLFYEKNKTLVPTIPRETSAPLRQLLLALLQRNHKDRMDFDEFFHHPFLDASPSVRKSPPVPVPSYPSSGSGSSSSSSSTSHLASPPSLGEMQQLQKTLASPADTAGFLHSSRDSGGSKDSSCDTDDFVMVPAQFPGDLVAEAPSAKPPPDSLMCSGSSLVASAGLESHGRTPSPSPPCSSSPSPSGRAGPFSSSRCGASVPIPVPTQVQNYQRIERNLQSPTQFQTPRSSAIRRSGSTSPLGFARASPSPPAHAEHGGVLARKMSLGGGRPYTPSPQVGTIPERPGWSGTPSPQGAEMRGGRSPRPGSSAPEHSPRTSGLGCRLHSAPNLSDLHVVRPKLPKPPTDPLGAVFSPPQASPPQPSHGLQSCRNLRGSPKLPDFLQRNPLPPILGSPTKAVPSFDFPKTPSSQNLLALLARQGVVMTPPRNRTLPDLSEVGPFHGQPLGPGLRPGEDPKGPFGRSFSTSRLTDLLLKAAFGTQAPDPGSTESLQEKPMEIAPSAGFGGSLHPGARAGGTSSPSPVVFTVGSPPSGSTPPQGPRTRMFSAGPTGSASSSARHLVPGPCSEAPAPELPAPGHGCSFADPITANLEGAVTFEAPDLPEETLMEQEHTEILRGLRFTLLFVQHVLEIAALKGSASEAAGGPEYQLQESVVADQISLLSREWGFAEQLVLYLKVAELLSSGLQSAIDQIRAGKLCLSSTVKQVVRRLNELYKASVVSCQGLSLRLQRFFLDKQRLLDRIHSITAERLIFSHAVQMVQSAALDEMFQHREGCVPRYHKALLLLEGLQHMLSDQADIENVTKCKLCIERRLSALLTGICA
UniProt Q15910, sequence (whole entry, looked up): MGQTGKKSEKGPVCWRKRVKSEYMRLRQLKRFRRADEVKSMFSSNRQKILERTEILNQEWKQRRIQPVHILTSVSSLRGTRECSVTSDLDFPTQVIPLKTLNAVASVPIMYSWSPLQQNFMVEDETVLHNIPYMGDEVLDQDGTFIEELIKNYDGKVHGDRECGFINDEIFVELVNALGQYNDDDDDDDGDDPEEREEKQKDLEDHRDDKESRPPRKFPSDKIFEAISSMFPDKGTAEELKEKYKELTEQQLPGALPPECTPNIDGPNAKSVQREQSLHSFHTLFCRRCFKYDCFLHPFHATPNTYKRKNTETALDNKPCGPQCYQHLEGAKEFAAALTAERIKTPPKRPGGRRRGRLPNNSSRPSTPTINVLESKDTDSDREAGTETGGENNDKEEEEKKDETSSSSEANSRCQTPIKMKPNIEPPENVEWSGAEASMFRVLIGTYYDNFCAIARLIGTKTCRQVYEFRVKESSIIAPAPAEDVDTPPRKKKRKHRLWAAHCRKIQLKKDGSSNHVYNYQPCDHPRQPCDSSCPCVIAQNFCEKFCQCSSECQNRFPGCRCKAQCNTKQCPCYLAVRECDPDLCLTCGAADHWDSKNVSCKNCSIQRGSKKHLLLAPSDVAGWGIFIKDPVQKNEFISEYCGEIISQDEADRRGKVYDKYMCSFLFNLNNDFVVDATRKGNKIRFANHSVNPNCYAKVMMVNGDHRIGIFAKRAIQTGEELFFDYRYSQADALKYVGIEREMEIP
UniProt P02754, sequence (whole entry, unmodified, looked up): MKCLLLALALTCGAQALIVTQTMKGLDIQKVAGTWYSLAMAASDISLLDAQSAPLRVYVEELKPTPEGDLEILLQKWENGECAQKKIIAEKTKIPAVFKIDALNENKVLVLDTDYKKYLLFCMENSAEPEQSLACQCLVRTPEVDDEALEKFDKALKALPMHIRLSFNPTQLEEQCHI
UniProt O35433, sequence (whole entry, unmodified, looked up): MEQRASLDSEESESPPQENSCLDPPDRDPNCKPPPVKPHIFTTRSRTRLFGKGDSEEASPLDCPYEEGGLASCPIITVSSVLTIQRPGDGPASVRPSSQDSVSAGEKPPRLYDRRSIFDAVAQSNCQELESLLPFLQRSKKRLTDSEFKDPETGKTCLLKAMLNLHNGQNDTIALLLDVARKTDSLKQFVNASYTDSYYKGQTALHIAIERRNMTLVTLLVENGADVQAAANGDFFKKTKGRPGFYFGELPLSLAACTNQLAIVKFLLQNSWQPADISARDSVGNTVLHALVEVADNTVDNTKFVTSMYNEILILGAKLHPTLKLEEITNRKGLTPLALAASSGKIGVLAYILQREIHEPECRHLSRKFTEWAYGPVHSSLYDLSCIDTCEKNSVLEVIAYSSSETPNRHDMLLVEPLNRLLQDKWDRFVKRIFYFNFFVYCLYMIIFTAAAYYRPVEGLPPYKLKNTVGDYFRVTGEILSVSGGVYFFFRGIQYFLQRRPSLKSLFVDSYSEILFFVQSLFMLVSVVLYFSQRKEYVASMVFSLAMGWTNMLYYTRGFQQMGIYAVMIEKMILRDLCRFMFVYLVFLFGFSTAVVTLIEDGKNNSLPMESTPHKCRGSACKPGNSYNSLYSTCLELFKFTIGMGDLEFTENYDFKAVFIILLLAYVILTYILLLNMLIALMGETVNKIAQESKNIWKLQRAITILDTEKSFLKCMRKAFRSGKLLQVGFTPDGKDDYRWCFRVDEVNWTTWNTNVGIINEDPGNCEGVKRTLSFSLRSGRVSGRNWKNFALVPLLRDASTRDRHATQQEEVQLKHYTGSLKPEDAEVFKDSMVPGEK

SMILES = O=C(N[C@@H](CCNC(=O)c1ccc([N+](=O)[O-])o1)c1nc2ccccc2[nH]1)c1ccc(-n2cccn2)cc1; tested on = STING1 H232R; assay = reporter gene, inhibitor; test system = THP1-Dual KI-hSTING-R232; setting = 24 h, 1 h preincubation, together with: diABZI 500 nM; endpoint = EC50; result = 15.7 µM
SMILES = COc1cc(C2C(NC(=O)c3ccc(NC(=O)OC(C)(C)C)cc3)(C(=O)O)C(c3ccc(OC(=O)c4cccs4)c(OC)c3)C2(NC(=O)c2ccc(NC(=O)OC(C)(C)C)cc2)C(=O)O)ccc1OC(=O)c1cccs1 (centres unmarked); tested on = GLP1R (Homo sapiens, UniProt P43220, D198A); assay = cAMP accumulation, agonist; setting = receptor mutant; how to read = relative to: wild type; endpoint = Emax; result = 4.43 ± 2.33%
SMILES = CSc1cc(C)[nH]c(=O)c1CNC(=O)c1c(C)n(C(C)C2CCC(NC3(C)COC3)CC2)c2ccccc12 (centres unmarked); tested on = EZH2 (Homo sapiens, UniProt Q15910); assay = enzyme activity; endpoint = residence time; result = 2820 min
SMILES = CC(C)Oc1cc(Cl)ccc1CNc1cc(-c2ccccc2)nc2ncnn12; tested on = GPR3 (Homo sapiens, UniProt P46089); assay = cAMP reporter; test system = human cells; setting = 1 µM; how to read = higher is more cAMP; endpoint = cAMP luminescence; result = 24500 a.u. and 19200 a.u. and 2860 a.u. and 2520 a.u. and 11500 a.u. and 28700 a.u. and 7950 a.u. and 5800 a.u.
SMILES = CC(C)(C)OC(=O)N1CCN(CC(OCc2ccc(Br)cc2)c2ccc(Cl)cc2Cl)CC1 (centres unmarked); tested on = ULK1 (Homo sapiens, UniProt O75385); assay = enzyme activity, inhibitor, ADP detection; setting = 0.1 µM; endpoint = activity vs control; result = 135%
SMILES = O=C(O)[C@H]1O[C@@H](O[C@H]2[C@H](O)[C@H](O)[C@H](O[C@H]3[C@H](O)[C@H](O)[C@H](O)O[C@@H]3C(=O)O)O[C@H]2C(=O)O)[C@@H](O)[C@@H](O)[C@@H]1O[C@@H]1O[C@@H](C(=O)O)[C@@H](O)[C@H](O)[C@@H]1O; tested on = Beta-lactoglobulin (LGB, Bos taurus, UniProt P02754, A134V/G80D); assay = isothermal titration calorimetry; setting = pH 4.00, 37 °C, 50 mM KH2PO4; endpoint = -TΔS; result = 0.478 kcal/mol
SMILES = CN(C)c1ccc(-n2cc(COC(=O)[C@@]3(C)C=C(C(=O)OC(C)(C)C)C(=O)CC3)nn2)cc1; tested on = MAPK8; assay = D-peptide binding, inhibitor, FP peptide displacement; setting = 1.562 µM; how to read = lower is stronger displacement; endpoint = fraction bound; result = 0.928
SMILES = C#Cc1ccc2nc([C@H](CCNC(=N)c3ccc([N+](=O)[O-])o3)NC(=O)c3noc(-c4cc(F)ccc4F)n3)[nH]c2c1; tested on = STING1 H232R; assay = reporter gene, inhibitor; test system = THP1-Dual KI-hSTING-R232; setting = 24 h, 1 h preincubation, together with: diABZI 500 nM; endpoint = EC50; result = 1.5 ± 0.1 µM
SMILES = CCCCCC=CC=C1C(=O)C=CC1CC=CCCCC(=O)O (centres unmarked); tested on = Elongation factor 2, Cys41 (EEF2, Homo sapiens, UniProt P13639); assay = competitive isoTOP-ABPP; test system = proteome, soluble, MDA-MB-231; setting = 100 µM, 60 min, together with: iodoacetamide probe; how to read = relative to: DMSO over compound-treated, higher = stronger cysteine blockade; endpoint = isoTOP-ABPP competition ratio; result = 2.6
SMILES = N#Cc1ccc(-c2ccc(/C=N/OCc3ccc(-c4nc5cc(-c6ccccc6)ccn5c4Nc4ccc(C(=O)O)cc4)cc3)cc2)nc1; tested on = TDP2 (Homo sapiens, UniProt O95551); how to read = relative to: TDP1 IC50 over TDP2 IC50; endpoint = selectivity ratio; result = 74
SMILES = Cc1ncsc1-c1ccc(C(C)NC(=O)C2CC(O)CN2C(=O)C(NC(=O)CCCCCCCCCCN2CCCC(Nc3ncc(Cl)c(Nc4ccccc4S(=O)(=O)C(C)C)n3)C2)C(C)(C)C)cc1 (centres unmarked); tested on = 22Rv1; assay = RNA-seq, item: NECTIN4 mRNA; setting = concentration not given; how to read = relative to: DMSO; endpoint = log2 fold change; result = -1.87
SMILES = Cc1ccc(O[C@@H]2O[C@H](CO)[C@H](O)[C@H](O)[C@H]2O)cc1; tested on = Adhesin FmlH, lectin domain (Escherichia coli, UniProt Q1RBS0); assay = binding to desialylated mucin, ELISA competition; test system = UPEC UTI89; setting = 100 µM; endpoint = inhibition; result = 85.8 ± 0.7%
SMILES = O=C(O)P(=O)(O)O; tested on = DNA polymerase catalytic subunit (Human cytomegalovirus, UniProt P08546); assay = enzyme activity, inhibitor; endpoint = Hill slope; result = 0.95
SMILES = C/C1=C\CC/C(C)=C/CC(C)(C)/C=C/C1; tested on = Trpv1 (Rattus norvegicus, UniProt O35433, S512A/T550A/Y511A); assay = inhibitor, outside-out patch clamp; setting = 10 µM, vanilloid-site triple mutant, together with: pH 5.5 activation; endpoint = remaining current fraction; result = 0.51 ± 0.03
SMILES = COC1CN([C@H]2CC[C@H]([C@@]3(C)Oc4c(Cl)cc(C(=O)NCc5c(SC)cc(C)[nH]c5=O)c(C)c4O3)CC2)C1; assay = RNA-seq, item: ARNT2; test system = human, whole blood; setting = dose not given, 24 h; how to read = relative to: pretreatment baseline; endpoint = log2 fold change; result = 8.05
SMILES = C=C1CC2(C(=O)OC)C=C(C(=O)OC(C)(C)C)C(=O)C1C2 (centres unmarked); tested on = MAPK8; assay = D-peptide binding, inhibitor, FP peptide displacement; setting = 125 µM; how to read = lower is stronger displacement; endpoint = fraction bound; result = 0.333
SMILES = CCCCCCCC/C=C\CCCCCCCC(=O)OCC(O)COP(=O)(O)O (centres unmarked); tested on = LPAR1 (Homo sapiens, UniProt Q92633); assay = G-protein dissociation, agonist, NanoBiT; test system = HEK-293T; setting = 100 pM, wild-type receptor; how to read = relative to: baseline luminescence; endpoint = fold change; result = 1 and 1.01 and 0.997 and 0.99 and 0.984 and 0.998

Some of these lines once more:
SMILES = Cc1ncsc1-c1ccc(C(C)NC(=O)C2CC(O)CN2C(=O)C(NC(=O)CCCCCCCCCCN2CCCC(Nc3ncc(Cl)c(Nc4ccccc4S(=O)(=O)C(C)C)n3)C2)C(C)(C)C)cc1 (centres unmarked); tested on = 22Rv1; assay = RNA-seq, item: NECTIN4 mRNA; setting = concentration not given; how to read = relative to: DMSO; endpoint = log2 fold change; result = -1.87
SMILES = COc1cc(C2C(NC(=O)c3ccc(NC(=O)OC(C)(C)C)cc3)(C(=O)O)C(c3ccc(OC(=O)c4cccs4)c(OC)c3)C2(NC(=O)c2ccc(NC(=O)OC(C)(C)C)cc2)C(=O)O)ccc1OC(=O)c1cccs1 (centres unmarked); tested on = GLP1R (Homo sapiens, UniProt P43220, D198A); assay = cAMP accumulation, agonist; setting = receptor mutant; how to read = relative to: wild type; endpoint = Emax; result = 4.43 ± 2.33%
